Results collected from several papers.
Parts stem from different laboratories: compare values within a part only. Positions count from the first letter of the parent shown.
Sequence of UniProt P10721 (whole entry, looked up): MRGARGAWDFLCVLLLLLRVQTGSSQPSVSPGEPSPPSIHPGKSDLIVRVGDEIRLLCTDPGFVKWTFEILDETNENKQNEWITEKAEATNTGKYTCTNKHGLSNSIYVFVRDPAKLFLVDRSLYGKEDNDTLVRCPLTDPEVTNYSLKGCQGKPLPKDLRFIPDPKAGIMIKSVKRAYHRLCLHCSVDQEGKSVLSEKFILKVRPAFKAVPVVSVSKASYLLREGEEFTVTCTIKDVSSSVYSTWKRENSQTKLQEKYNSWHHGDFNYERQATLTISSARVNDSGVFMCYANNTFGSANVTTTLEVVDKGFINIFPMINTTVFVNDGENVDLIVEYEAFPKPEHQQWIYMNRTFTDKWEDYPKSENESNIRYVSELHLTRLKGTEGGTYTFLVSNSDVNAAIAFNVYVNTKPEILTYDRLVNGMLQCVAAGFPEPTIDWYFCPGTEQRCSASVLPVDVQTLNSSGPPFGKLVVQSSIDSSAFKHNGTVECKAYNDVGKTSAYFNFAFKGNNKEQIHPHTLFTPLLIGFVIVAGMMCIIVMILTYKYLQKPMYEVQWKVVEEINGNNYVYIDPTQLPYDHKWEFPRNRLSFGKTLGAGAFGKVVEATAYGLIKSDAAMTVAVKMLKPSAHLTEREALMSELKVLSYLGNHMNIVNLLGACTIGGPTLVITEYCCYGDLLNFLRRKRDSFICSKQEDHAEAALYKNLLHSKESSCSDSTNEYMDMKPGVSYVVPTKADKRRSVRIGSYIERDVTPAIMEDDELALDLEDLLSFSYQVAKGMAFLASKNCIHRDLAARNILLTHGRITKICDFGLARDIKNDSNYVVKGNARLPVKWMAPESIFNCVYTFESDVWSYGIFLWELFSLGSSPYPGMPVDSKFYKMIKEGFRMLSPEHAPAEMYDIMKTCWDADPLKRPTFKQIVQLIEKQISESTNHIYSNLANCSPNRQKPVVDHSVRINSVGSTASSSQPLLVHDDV
Sequence of UniProt P53778 (whole entry, looked up): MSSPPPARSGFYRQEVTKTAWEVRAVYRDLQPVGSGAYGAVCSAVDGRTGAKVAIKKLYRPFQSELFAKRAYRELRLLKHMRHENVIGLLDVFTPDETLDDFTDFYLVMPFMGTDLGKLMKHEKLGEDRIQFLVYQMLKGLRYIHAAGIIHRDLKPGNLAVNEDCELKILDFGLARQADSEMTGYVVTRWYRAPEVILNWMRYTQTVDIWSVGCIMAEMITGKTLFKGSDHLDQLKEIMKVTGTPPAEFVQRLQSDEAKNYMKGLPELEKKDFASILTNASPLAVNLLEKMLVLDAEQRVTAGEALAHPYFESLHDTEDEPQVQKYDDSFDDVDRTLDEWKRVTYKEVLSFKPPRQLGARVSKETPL
Sequence of UniProt P00519 (whole entry, unmodified, looked up): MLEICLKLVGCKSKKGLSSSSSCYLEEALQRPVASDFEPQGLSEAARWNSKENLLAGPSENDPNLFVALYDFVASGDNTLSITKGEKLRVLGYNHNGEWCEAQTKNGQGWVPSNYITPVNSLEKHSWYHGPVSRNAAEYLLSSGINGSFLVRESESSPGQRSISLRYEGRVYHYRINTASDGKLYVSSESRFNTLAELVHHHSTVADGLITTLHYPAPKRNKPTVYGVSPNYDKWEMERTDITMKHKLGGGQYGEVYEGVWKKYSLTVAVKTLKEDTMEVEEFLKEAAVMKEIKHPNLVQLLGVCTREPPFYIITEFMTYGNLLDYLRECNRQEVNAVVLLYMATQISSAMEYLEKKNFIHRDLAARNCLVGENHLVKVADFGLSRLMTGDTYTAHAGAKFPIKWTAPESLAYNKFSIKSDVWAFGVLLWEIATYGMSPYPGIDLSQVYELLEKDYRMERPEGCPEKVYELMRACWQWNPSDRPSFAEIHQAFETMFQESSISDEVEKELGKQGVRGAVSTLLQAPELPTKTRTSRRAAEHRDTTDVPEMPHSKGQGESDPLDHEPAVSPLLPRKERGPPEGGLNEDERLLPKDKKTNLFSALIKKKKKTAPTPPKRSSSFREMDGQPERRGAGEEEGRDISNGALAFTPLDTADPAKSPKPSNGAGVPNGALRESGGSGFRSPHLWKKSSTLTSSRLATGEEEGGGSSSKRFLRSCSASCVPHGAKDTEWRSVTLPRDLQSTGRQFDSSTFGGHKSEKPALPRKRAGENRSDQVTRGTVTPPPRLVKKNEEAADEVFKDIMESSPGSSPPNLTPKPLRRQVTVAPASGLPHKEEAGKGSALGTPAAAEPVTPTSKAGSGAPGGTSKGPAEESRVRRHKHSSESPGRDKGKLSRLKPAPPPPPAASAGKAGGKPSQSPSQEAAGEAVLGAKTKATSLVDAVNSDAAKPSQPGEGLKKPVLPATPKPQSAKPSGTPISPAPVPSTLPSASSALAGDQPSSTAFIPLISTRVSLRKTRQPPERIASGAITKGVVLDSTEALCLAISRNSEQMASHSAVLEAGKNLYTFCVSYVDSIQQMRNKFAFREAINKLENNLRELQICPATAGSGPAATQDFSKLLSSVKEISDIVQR
Sequence of UniProt Q00526 (whole entry, looked up): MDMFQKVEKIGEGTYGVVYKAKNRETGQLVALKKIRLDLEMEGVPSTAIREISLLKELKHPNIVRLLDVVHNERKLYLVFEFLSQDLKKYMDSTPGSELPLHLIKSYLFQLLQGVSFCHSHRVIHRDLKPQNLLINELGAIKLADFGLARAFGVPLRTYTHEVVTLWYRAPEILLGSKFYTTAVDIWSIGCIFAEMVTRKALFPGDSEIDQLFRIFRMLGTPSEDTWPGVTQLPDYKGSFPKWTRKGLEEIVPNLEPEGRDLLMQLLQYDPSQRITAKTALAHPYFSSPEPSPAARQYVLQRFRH
Sequence of UniProt P54756 (whole entry, looked up): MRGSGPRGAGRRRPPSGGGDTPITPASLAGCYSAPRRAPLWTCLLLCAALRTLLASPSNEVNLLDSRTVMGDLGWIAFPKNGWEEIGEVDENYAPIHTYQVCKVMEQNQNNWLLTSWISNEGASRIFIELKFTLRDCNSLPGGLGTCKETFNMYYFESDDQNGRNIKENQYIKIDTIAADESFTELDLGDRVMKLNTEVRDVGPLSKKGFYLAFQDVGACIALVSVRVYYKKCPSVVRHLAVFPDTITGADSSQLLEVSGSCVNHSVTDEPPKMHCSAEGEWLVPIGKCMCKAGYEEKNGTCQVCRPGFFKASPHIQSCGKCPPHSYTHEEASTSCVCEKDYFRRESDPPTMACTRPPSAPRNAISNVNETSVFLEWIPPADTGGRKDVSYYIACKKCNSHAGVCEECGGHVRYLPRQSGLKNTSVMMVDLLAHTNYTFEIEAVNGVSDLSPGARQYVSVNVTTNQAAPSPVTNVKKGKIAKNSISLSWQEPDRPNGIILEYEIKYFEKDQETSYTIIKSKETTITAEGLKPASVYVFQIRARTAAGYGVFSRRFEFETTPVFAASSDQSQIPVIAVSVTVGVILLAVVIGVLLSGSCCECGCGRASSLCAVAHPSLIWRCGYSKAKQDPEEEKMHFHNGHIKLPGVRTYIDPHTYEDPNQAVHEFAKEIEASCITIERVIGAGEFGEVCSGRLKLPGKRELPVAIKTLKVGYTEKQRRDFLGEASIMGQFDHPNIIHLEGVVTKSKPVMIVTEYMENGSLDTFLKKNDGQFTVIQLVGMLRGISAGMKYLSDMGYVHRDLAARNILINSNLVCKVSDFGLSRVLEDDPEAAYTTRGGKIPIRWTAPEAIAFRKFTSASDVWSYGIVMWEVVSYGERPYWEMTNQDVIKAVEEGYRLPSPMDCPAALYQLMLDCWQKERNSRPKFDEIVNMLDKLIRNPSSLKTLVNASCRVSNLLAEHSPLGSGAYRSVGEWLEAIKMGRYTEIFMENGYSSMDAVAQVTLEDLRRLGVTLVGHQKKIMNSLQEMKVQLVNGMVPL
Sequence of UniProt P41743 (whole entry, looked up): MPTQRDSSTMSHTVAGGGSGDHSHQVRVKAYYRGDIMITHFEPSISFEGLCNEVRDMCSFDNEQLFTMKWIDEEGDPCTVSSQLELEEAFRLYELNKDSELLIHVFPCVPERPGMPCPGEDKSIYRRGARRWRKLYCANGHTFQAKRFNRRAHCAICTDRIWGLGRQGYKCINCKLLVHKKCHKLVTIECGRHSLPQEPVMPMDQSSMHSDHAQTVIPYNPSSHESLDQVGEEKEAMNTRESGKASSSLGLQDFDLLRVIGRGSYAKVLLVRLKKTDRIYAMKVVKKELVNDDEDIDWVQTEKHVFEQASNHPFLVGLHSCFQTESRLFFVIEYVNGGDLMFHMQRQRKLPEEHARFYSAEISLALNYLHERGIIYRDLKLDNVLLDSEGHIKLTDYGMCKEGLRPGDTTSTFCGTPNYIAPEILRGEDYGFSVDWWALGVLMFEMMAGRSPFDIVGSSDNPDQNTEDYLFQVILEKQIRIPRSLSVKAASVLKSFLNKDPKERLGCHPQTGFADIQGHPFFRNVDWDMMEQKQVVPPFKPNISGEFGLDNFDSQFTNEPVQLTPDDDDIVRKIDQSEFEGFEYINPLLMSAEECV
Sequence of UniProt Q8IY84 (whole entry, looked up): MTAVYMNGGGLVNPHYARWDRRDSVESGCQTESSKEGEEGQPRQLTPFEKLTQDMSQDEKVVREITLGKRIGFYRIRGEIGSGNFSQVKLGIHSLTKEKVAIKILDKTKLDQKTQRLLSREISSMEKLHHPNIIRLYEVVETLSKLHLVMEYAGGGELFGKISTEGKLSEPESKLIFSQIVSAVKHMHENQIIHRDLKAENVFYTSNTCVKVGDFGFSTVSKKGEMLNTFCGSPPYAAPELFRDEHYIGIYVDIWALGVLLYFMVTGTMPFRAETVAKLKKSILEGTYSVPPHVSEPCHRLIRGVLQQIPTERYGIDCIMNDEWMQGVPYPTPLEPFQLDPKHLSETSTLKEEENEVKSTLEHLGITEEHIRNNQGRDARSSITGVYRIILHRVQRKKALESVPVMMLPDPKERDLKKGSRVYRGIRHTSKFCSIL

Study 1 — technique: RNA Bind-n-Seq; molecule type: RNA; matrix: in vitro; concentration: not given; notes: RNA with constant flanks, ends assumed; relative to: input RNA pool; reading: higher = stronger binding; endpoint: bound/input enrichment
Target: RING finger protein unkempt homolog, zinc fingers 1-6, GST-SBP tag (UNK, Homo sapiens, UniProt Q9C0B0, residues 30-357)
Shared flanks, not repeated: GGGAGUUCUACAGUCCGACGAUC … CAACAGAGGAUUGAGCAUCA
Target sequence (chain): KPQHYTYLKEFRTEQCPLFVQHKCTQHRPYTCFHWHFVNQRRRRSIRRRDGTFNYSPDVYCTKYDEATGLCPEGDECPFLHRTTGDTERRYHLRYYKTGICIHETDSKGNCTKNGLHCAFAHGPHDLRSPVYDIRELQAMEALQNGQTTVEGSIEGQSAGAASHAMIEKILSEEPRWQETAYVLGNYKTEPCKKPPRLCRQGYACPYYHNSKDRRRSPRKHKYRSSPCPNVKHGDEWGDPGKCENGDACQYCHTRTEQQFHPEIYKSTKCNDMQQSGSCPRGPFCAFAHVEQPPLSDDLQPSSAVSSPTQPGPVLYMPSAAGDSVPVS
CCUGGUGGGCAUGUGGGACGUUUCUGCAUUUGGACUGAAAGUGCUUUCCGGAAGUCCGAUGAAUUGUACGGCACUUGGCGUAAAGCCGCUUCCCUCAAGAGUAACUACAAUCUUCCCAUG: 0.101 ratio
UUUUUGAAGGGUGUGAUGCUUGGAAGCAUCUUCUGUGCCUUGAUCACUAUGCUAGGCCACAUCCGGAUUGGAAACAGAAUGCACCACCAUGAGCAUCACCAUCUGCAAGCCCCUAACAAA: 0.116 ratio
CUUGUAUUUCCUCCUUCUGUUGCUCUCUUUCAUUCACACACUCUCAGUUUCUCAUAUUUGCCGCUCAUUUAUUUGGUUAUUUCCUAAGAAUAUUGAAAGUGAAGCAACUAUGUGACUGUA: 0.106 ratio
CAGUCACCGCUUUCUUCUCUAAAACAACUUCUUUUUUUUUUUUAACACAUCUUUUCCAUGCCGCAACCAAAGCCAGAGCCAUGUUCUAACCCUAUGCCCUUCUCAAGCCUGGCUGCUCAC: 1.5 ratio
AAGGAACUGCAGGUUGAACUGUCUGGCUGAAGCAAUGGCGGGUAUGGCAAGCCCCUCCCACCGUAAAUCCCCCUGCCUAUAUUAUAAUGGAUCAUGCGAUAUCAGUAUGGGAAGUGUAUG: 0.221 ratio
GAGGAAGGACUGAAGACAGCGGACCCUCAUGACUGCUCUGCAUAUACUGGUUGGACAGGCACCGCACUUUUGUACCUGCAGCUGUACCGGGUCACUGGUGACCAGACCUACCUGCUUCGA: 0.067 ratio
GGGAACAACAAUCAAAGUAAACCAGGCUUCCUGAGGAAGAAUCAUUAUACAAACACCAAACCCGAGGUGAAAAAAAUCCCCCAGGAAUUGAACAACAUUACCAAGCUCAACGAACACUUC: 0.169 ratio
AAUUCACAGGAAGUGAGAUUCGUGUGAGGGAUGACAAGAUGCCUUUGGCGCACCUUGCAACCGCUGUUGAAGCUGUUGGUUGGGCACAUCCAGAUACAAUCUGUCUCAUGGUUGCAAACA: 0.132 ratio

Study 2 — target: CRIPT, C-terminal peptide; technique: DHFR complementation, deep sequencing; matrix: yeast; relative to: wild type; reading: higher = weaker binding; endpoint: binding free energy change
Notes: single substitutions, model-inferred values
Parent: ERBIN, PDZ domain 1 (human); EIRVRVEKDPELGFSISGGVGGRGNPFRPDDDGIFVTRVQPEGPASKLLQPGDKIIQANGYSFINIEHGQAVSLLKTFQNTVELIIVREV; partner TKNYKQTSV
G43L: 0.943 kcal/mol
S17Y: 1.04 kcal/mol
N59Q: -0.142 kcal/mol
S15F: 0.485 kcal/mol
D32W: 0.372 kcal/mol
Q40L: 0.123 kcal/mol
D53C: 0.307 kcal/mol
Q40R: -0.000294 kcal/mol

Study 3 — effect on: cell-free assay; technique: competition with immobilised ligand; concentration: 1 µM; endpoint: remaining binding
Compound: COc1ccc2c(O[C@@H]3C[C@H]4C(=O)N[C@]5(C(=O)O)CC5/C=C\CCCCC[C@H](NC(=O)OC5CCCC5)C(=O)N4C3)cc(-c3csc(NC(=O)C(C)C)n3)nc2c1C (stereo partly drawn)
Cyclin-dependent kinase 3 (CDK3, Homo sapiens, UniProt Q00526): 100%
Tyrosine-protein kinase ABL1, phosphorylated (ABL1, Homo sapiens, UniProt P00519, F317L): 99%
Proto-oncogene tyrosine-protein kinase receptor Ret (RET, Homo sapiens, UniProt P07949): 91%
Serine/threonine-protein kinase NIM1 (NIM1K, Homo sapiens, UniProt Q8IY84): 83%

Study 4 — SMILES: Clc1ccc(Nc2nnc(Cc3ccncc3)c3ccccc23)cc1; effect on: enzyme activity; action: inhibitor; concentration: 0.5 µM; relative to: control; endpoint: remaining activity
Mitogen-activated protein kinase kinase kinase kinase 2 (MAP4K2, Homo sapiens, UniProt Q12851): 107%
Ephrin type-A receptor 5 (EPHA5, Homo sapiens, UniProt P54756): 109%
Interleukin-1 receptor-associated kinase 4 (IRAK4, Homo sapiens, UniProt Q9NWZ3): 85.1%
Protein kinase C iota type (PRKCI, Homo sapiens, UniProt P41743): 94.2%
Protein kinase C delta type (PRKCD, Homo sapiens, UniProt Q05655): 97.4%
Casein kinase I isoform alpha (CSNK1A1, Homo sapiens, UniProt P48729): 95%
Mitogen-activated protein kinase 12 (MAPK12, Homo sapiens, UniProt P53778): 96.8%
Cyclin-dependent kinase 9, with cyclin T1 (CDK9, Homo sapiens, UniProt P50750): 94.9%
Leucine-rich repeat serine/threonine-protein kinase 2 (LRRK2, Homo sapiens, UniProt Q5S007): 74.8%
Mast/stem cell growth factor receptor Kit (KIT, Homo sapiens, UniProt P10721): 45.7%
